Published values from different studies.
Compare with care: the assays were run in different laboratories. ± marks the error that the study gave.
Chain of UniProt Q71U36 (whole entry, looked up): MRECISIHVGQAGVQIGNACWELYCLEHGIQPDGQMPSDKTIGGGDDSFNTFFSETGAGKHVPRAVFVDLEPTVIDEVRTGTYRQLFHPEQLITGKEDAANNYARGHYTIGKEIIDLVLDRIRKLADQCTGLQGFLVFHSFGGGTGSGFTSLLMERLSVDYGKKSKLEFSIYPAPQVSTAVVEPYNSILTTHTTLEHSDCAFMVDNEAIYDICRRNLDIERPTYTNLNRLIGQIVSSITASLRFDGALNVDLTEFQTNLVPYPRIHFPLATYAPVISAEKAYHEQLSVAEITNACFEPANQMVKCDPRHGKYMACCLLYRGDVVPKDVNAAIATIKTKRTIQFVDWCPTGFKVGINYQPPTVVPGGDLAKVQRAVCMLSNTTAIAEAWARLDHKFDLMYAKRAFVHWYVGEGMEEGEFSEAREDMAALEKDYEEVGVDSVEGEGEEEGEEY

Structure (SMILES)	target or system	assay	system	setting	measurement	result
N#C/N=C1\SCCN1Cc1ccc(Cl)nc1			soil	0 days, nominal 1.1	concentration	0.6 mg/kg dry soil
O=C(Nc1cccnn1)N1CCC(=Cc2cccc(Oc3ccc(C(F)(F)F)cn3)c2)CC1			culture medium without cells	100 nM, 24 h	concentration	29.2 ± 1.2 nM
CN(C(=O)n1cnc(-c2ccc[n+]([O-])c2)c1)C1CCCCC1			Wistar rat, cerebellum	oral, 10 mg/kg, 4 h, single dose	concentration	112 ± 34.8 ng/g
CN1CCN(S(=O)(=O)c2cc([N+](=O)[O-])ccc2N(CCOS(C)(=O)=O)CCOS(C)(=O)=O)CC1			NSG mice female, plasma	intraperitoneal, 25 mg/kg, 0.25 h	concentration	9330 nM
Cc1c(C(=O)O)ccc2c3n(nc12)[C@@H]1[C@H](C3)N(CC2CC2)[C@@]2(C(=O)Nc3cc(Cl)ccc32)[C@H]1c1cccc(Cl)c1F			Abcb1a-/- Abcg2-/- Rag1-/- mice, normal brain	oral, 2 mg/kg, 24 h	concentration	227 ± 86 nM
C[C@H]1CN(c2n[nH]c3nc(N[C@H]4CC[C@H](NS(=O)(=O)CCC(F)(F)F)CC4)ncc23)CCO1	Tubulin alpha-1A chain (Homo sapiens, UniProt Q71U36)	biochemical			IC50	≥ 20 µM
O=C(Nc1cnccc1Cl)N1CCN(Cc2ccc3c(c2)OC(F)(F)O3)CC1			culture medium without cells	100 nM, 3 h	concentration	88 ± 4.5 nM
CC(C)[C@@H](CS(=O)(=O)C(C)C)N1C(=O)[C@@](C)(CC(=O)O)C[C@H](c2cccc(Cl)c2)[C@H]1c1ccc(Cl)cc1		MALDI-MSI	athymic nude mice, orthotopic PDX, tumour	oral, 25 mg/kg, 2 h after second dose, median	concentration	115 nM
C/C(=N\C#N)N(C)Cc1ccc(Cl)nc1			soil	56 days, nominal 1.1	concentration	0.021 mg/kg dry soil
CN(C(=O)n1cnc(-c2ccc[n+]([O-])c2)c1)C1CCCCC1			culture medium without cells	100 nM, 24 h	concentration	111 ± 2.8 nM

For quick reference, copied from above:
Structure (SMILES)	target or system	assay	system	setting	measurement	result
CN(C(=O)n1cnc(-c2ccc[n+]([O-])c2)c1)C1CCCCC1			Wistar rat, cerebellum	oral, 10 mg/kg, 4 h, single dose	concentration	112 ± 34.8 ng/g
CC(C)[C@@H](CS(=O)(=O)C(C)C)N1C(=O)[C@@](C)(CC(=O)O)C[C@H](c2cccc(Cl)c2)[C@H]1c1ccc(Cl)cc1		MALDI-MSI	athymic nude mice, orthotopic PDX, tumour	oral, 25 mg/kg, 2 h after second dose, median	concentration	115 nM
